Experimental data pooled from the literature.
Parts stem from different laboratories: compare values within a part only. pIC50: −log10 of the molar value.
Sequence of UniProt Q8WXR4 (whole entry, looked up): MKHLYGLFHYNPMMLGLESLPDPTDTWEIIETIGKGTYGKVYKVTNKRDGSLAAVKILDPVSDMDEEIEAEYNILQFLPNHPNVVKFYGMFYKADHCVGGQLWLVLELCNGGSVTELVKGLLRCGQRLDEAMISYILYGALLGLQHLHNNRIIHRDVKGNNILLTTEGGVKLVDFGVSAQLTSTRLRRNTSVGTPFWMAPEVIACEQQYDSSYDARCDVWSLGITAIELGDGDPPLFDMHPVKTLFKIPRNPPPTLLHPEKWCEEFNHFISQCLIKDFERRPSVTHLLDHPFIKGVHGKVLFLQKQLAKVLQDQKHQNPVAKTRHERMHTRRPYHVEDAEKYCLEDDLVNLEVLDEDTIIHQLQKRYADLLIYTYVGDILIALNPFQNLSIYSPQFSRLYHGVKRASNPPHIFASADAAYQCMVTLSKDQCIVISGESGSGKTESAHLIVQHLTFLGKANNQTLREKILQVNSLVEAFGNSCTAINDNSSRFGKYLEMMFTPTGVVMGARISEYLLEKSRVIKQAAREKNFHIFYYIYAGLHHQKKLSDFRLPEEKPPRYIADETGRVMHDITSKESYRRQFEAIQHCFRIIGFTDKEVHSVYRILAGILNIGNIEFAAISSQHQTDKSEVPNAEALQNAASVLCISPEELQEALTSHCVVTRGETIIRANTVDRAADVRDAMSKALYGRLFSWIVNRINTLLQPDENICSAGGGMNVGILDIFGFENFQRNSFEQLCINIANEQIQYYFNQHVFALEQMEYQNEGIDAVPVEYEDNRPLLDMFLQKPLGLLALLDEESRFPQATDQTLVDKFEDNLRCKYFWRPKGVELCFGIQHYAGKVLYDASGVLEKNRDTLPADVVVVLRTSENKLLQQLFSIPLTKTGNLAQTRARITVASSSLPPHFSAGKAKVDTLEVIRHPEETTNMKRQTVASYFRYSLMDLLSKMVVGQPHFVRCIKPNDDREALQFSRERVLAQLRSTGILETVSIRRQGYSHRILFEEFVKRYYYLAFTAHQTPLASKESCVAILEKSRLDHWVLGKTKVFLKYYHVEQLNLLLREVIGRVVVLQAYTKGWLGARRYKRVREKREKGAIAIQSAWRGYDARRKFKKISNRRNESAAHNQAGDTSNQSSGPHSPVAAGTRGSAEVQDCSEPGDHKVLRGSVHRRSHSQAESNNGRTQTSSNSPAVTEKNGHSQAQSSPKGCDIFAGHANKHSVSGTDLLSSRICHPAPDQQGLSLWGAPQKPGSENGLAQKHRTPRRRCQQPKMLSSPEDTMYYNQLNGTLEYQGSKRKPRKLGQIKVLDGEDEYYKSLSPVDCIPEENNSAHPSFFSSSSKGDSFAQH
Sequence of UniProt Q9UM73 (whole entry, unmodified, looked up): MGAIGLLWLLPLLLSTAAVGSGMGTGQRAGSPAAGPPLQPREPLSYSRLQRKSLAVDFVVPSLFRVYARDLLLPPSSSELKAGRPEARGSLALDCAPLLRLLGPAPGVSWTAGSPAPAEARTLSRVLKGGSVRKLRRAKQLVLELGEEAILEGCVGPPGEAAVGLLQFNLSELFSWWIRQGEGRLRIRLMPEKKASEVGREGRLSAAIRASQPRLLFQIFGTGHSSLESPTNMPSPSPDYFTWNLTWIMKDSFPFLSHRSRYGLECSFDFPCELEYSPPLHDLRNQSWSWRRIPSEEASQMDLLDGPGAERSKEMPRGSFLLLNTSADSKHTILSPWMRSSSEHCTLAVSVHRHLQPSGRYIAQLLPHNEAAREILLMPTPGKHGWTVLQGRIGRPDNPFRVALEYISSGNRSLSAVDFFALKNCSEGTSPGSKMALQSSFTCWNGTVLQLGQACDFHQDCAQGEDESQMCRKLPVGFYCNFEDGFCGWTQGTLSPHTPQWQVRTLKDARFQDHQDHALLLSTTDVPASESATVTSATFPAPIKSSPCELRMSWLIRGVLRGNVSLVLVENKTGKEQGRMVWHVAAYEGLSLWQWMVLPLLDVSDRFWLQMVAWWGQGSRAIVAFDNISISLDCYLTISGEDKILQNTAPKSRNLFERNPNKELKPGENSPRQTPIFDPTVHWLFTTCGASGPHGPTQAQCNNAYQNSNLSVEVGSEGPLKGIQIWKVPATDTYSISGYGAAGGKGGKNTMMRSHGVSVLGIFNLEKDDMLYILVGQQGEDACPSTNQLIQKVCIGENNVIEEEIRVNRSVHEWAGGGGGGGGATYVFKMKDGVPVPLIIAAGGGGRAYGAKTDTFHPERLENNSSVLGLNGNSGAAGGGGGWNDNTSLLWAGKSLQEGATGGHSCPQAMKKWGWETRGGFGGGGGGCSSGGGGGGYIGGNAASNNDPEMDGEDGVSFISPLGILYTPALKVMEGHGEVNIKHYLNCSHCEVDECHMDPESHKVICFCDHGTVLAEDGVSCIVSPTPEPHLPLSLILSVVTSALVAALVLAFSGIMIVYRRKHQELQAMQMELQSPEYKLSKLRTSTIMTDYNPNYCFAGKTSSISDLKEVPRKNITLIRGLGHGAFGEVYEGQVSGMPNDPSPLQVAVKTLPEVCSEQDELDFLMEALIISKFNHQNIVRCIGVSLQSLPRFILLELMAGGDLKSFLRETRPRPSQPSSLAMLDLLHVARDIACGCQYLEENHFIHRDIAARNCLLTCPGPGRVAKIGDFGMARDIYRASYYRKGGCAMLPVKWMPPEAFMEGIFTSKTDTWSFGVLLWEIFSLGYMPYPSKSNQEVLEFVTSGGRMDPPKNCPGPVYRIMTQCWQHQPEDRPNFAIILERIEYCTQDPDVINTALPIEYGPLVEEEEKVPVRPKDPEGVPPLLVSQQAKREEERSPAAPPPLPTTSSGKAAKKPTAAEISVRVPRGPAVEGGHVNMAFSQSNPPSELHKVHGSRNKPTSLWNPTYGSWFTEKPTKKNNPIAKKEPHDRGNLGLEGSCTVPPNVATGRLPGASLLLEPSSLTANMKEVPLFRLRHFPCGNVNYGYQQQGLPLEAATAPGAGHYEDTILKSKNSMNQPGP

Set 1
Target: Beta-1 adrenergic receptor (ADRB1, Homo sapiens, UniProt P08588)
Sequence of UniProt P08588 (whole entry, looked up): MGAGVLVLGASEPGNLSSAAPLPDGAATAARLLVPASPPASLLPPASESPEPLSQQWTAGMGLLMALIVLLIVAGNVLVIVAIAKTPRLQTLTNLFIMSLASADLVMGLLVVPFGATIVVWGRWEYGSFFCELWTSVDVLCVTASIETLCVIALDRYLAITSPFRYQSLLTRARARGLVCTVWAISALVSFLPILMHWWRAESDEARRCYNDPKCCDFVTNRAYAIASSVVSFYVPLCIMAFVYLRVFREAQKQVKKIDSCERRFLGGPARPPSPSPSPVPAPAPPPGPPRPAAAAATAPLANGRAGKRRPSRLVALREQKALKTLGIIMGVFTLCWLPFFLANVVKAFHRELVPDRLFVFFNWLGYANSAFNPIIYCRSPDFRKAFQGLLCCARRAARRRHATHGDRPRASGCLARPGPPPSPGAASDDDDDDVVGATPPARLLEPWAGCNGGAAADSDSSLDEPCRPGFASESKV
Action: antagonist
For `CN(C)c1ccc(CN2CCNc3cc(Nc4cccnc4)ncc3C2)cc1`, the pIC50 was no more than 4.00.
The pIC50 of `CCC(CC)C(=O)NC[C@H]1O[C@@H](CC(=O)N2CCN(c3ccccc3OC)CC2)[C@H](O)[C@@H]1O` is reported as no more than 4.00.
With `Cc1ccc2c(C(=O)N(C)C(C)C)cc(-c3cnc(C(C)C)nc3)nc2c1` the pIC50 was no more than 4.00.
`Cc1nnc(CN(C)Cc2ccccc2OCC(O)CN2CCSCC2)o1` (centres unmarked) has a pIC50 of no more than 4.00.
For `Cc1nn(Cc2ccc(F)cc2)c2sc(C(=O)N(C)Cc3cnn(C)c3)cc12`, the pIC50 was no more than 4.00.

Set 2
SMILES: CN(C)CC#Cc1ccc(OCCCc2sc(N3CCc4cccc(C(=O)Nc5nc6ccccc6s5)c4C3)nc2C(=O)O)c(F)c1
Technique: competition with immobilised ligand
Concentration: 1 µM
It gave 100% for remaining binding (ALK tyrosine kinase receptor (ALK, Homo sapiens, UniProt Q9UM73, C1156Y); cell-free assay).
For Myosin-IIIb (MYO3B, Homo sapiens, UniProt Q8WXR4); binding: remaining binding read 96%.
The remaining binding was 80% (Phosphatidylinositol 5-phosphate 4-kinase type-2 beta (PIP4K2B, Homo sapiens, UniProt P78356); cell-free assay).
The remaining binding was 86% (Serine/threonine-protein kinase RIO3 (RIOK3, Homo sapiens, UniProt O14730); cell-free assay).
Serine/threonine-protein kinase PAK 1 (PAK1, Homo sapiens, UniProt Q13153); cell-free assay — remaining binding: 98%.

Set 3
Organism: Sarcocystis neurona
Observed: parasite growth
Concentration: 10 µM
Time: 96 h
Notes: first screen
Baseline: untreated
Under “log2 fold change”, `CC[C@@]1(O)C(=O)OCc2c1cc1n(c2=O)Cc2cc3c(CN(C)C)c(O)ccc3nc2-1` is recorded as 0.16.
`C[C@]12C=CC(=O)C=C1CC[C@@H]1[C@@H]2[C@@H](O)C[C@@]2(C)[C@H]1CC[C@]2(O)C(=O)CO`: “log2 fold change” 0.25.
`N[C@@H](C(=O)N[C@@H]1C(=O)N2C(C(=O)O)=C(Cl)CS[C@H]12)c1ccccc1` — result for “log2 fold change”: -0.0758.
For `CC1(C)O[C@@H]2C[C@H]3[C@@H]4CCC5=CC(=O)C=C[C@]5(C)[C@@]4(F)[C@@H](O)C[C@]3(C)[C@]2(C(=O)CO)O1`, “log2 fold change” read -0.000194.

Set 4
Target: Insulin-like growth factor 1 receptor (IGF1R, Homo sapiens, UniProt P08069)
Sequence of UniProt P08069 (whole entry, looked up): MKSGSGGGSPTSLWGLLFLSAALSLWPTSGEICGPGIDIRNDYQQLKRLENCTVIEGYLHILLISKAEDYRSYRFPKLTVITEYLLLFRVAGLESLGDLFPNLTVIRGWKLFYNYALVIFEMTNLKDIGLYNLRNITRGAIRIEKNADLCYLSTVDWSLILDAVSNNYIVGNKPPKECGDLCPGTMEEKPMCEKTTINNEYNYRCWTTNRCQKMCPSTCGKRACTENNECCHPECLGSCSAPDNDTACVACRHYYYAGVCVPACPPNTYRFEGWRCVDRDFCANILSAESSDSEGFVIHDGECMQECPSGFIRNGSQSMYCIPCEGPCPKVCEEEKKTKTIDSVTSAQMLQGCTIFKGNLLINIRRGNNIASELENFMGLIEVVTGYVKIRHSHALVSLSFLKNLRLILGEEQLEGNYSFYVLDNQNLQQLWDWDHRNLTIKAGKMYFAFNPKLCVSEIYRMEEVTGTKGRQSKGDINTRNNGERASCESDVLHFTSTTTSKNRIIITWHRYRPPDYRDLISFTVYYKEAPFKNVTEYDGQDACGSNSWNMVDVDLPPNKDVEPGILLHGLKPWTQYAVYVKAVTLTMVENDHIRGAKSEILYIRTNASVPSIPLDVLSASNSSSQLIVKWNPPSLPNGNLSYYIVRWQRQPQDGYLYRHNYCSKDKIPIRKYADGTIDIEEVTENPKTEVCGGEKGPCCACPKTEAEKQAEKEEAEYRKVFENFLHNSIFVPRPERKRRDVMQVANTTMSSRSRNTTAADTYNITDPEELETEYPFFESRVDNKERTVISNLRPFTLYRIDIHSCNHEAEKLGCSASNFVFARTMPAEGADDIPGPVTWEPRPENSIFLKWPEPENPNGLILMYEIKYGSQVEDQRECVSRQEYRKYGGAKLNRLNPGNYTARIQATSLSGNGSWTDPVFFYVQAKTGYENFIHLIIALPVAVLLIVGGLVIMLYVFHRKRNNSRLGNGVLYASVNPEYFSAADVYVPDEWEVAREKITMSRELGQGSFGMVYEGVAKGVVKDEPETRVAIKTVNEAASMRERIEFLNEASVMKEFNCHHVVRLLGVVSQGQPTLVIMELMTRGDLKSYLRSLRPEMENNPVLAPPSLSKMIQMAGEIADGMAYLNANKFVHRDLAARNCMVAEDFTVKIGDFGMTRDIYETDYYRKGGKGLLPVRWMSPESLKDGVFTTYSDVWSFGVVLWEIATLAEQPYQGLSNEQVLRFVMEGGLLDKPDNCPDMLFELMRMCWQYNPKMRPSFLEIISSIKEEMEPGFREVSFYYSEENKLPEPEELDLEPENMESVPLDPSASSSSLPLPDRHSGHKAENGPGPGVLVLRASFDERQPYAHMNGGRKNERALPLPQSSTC
Observed: enzyme activity
Action: inhibitor
Concentration: 0.5 µM
Baseline: control
For `O=c1c2ccccc2[nH]c(=S)n1CCN1CCC(=C(c2ccc(F)cc2)c2ccc(F)cc2)CC1`, the remaining activity was 105%.
With `CCOC(=O)c1c(C)[nH]c(/C=C2\C(=O)Nc3ccccc32)c1C` the remaining activity was 79.5%.
The remaining activity of `COc1cc2ncnc(Nc3ccc(Oc4ccccc4)cc3)c2cc1OC` is reported as 102%.
For `Cn1sc(=O)n(Cc2ccccc2)c1=O`, the remaining activity was 97.1%.
With `Cn1c2ccccc2c2c3c(c4c5ccccc5n(CCC#N)c4c21)CNC3=O` the remaining activity was 98.3%.
`O=S(=O)(c1cccc2cnccc12)N1CCCNCC1` gave a remaining activity of 112%.
`Nc1[nH]nc2nc3ccccc3nc12` has a remaining activity of 97.5%.
`Cc1nc(-c2ccccc2)c(-c2ccncc2)o1` gave a remaining activity of 99.9%.
`CN(C)c1ccc(C=C2C(=O)Nc3ccccc32)cc1` has a remaining activity of 101%.
`Cc1ccc(NC(=O)c2ccc(CN3CCN(C)CC3)cc2)cc1Nc1nc(-c2cccnc2)cs1` gave a remaining activity of 101%.
With `CO[C@H]1C[C@@H]2CC[C@@H](C)[C@@](O)(O2)C(=O)C(=O)N2CCCC[C@H]2C(=O)O[C@H]([C@H](C)C[C@@H]2CC[C@@H](O)[C@H](OC)C2)CC(=O)[C@H](C)/C=C(\C)[C@@H](O)[C@@H](OC)C(=O)[C@H](C)C[C@H](C)/C=C/C=C/C=C/1C` the remaining activity was 112%.
`COc1cc2nccc(Oc3ccc(NC(=S)NC(=O)c4ccccc4C)cc3)c2cc1OC` gave a remaining activity of 92.1%.
`CC(C)[C@H](CO)Nc1nc(Nc2cc(N)cc(Cl)c2)c2ncn(C(C)C)c2n1` gave a remaining activity of 73%.
`COc1cc2ncnc(Nc3ccc(F)c(Cl)c3)c2cc1OCCCN1CCOCC1` gave a remaining activity of 92.3%.

Other studies, line by line
The pIC50 of `CC[C@H](C)c1nc2cc(Nc3ccnc4ccc(S(=O)(=O)C(C)C)cc34)ccc2s1` is reported as 7.96 (Receptor-interacting serine/threonine-protein kinase 3 (RIPK3, Homo sapiens, UniProt Q9Y572); enzyme activity, inhibitor, ADP detection).

Excerpt of the above (set 4):
`O=S(=O)(c1cccc2cnccc12)N1CCCNCC1` gave a remaining activity of 112%.
The remaining activity of `COc1cc2ncnc(Nc3ccc(Oc4ccccc4)cc3)c2cc1OC` is reported as 102%.
`COc1cc2ncnc(Nc3ccc(F)c(Cl)c3)c2cc1OCCCN1CCOCC1` gave a remaining activity of 92.3%.
`Nc1[nH]nc2nc3ccccc3nc12` has a remaining activity of 97.5%.
`Cc1nc(-c2ccccc2)c(-c2ccncc2)o1` gave a remaining activity of 99.9%.
